Results collected from several papers.
Each line is one published result; not all experiments were run side by side. Several values in a cell are separate wells, animals, samples, runs or records.
rep main protease: Replicase polyprotein 1ab, main protease (rep, Severe acute respiratory syndrome coronavirus 2, UniProt P0DTD1)
rep nsp12 RdRp: Replicase polyprotein 1ab, nsp12 RdRp (rep, Severe acute respiratory syndrome coronavirus 2, UniProt P0DTD1)
rep papain-like protease: Replicase polyprotein 1ab, papain-like protease (rep, Severe acute respiratory syndrome coronavirus 2, UniProt P0DTD1)

SMILES	target or system	test	system	setting	how to read	measurement	value
CC1CC(c2ccc(C(=O)NS(C)(=O)=O)cc2)=NN1c1ccc(C#N)c(Cl)c1 (stereo not drawn)	Replicase polyprotein 1ab, nsp14 methyltransferase (rep, Severe acute respiratory syndrome coronavirus 2, UniProt P0DTD1)	–	–	–	–	lipophilic ligand efficiency	2.1
C[C@](C(=O)NC1CCC(F)(F)CC1)(c1cncnc1)N(C(=O)[C@H](F)Cl)c1ccc(OC(F)(F)F)cc1	rep main protease	enzyme activity	–	0.309 µM	–	inhibition	96.7% and 106%
Nc1ccn([C@@H]2O[C@H](COP(=O)(O)OP(=O)(O)OP(=O)(O)O)[C@@H](O)[C@H]2O)c(=O)n1	rep nsp12 RdRp	nucleotide incorporation, substrate	–	–	–	Vmax	0.94 fraction per time
O=C(NCCc1cccc(F)c1)[C@@H](c1cncnc1)N(C(=O)[C@H](F)Cl)c1ccc(S(F)(F)(F)(F)F)cc1	rep main protease	enzyme activity, inhibitor	–	–	–	kinact	0.0056 s⁻¹
COC(=O)C[C@H](NC(=O)c1ccccc1[Se][Se]c1ccccc1C(=O)N[C@@H](CC(=O)OC)C(=O)OC)C(=O)OC	rep main protease	enzyme activity, inhibitor	–	40 µM	–	inhibition	106%
NS(=O)(=O)c1cccc2c1C(=O)c1cccc(O)c1C2=O	rep main protease	3CL protease activity	–	–	–	maximum inhibition	83%
CC(=O)N[C@@H](Cc1ccc(O)cc1)C(=O)N[C@@H](CC(=O)O)C(=O)N[C@H]1CCC[C@@H]1C(=O)N[C@@H](Cc1ccccc1)C(=O)N[C@@H](Cc1ccc(O)cc1)C(=O)N[C@H]1CCC[C@@H]1C(=O)N[C@@H](Cc1ccc(O)cc1)C(=O)N[C@H](C(=O)N[C@H](C(=O)N[C@@H](Cc1ccccc1)C(=O)N[C@@H](Cc1c[nH]cn1)C(=O)N[C@H](C(=O)N[C@@H](C)C(=O)N[C@H](C(N)=O)[C@@H](C)O)C(C)C)[C@@H](C)O)C(C)C	rep main protease	binding, SPR	–	pH 7.6	–	kon	1.26e+07 M⁻¹ s⁻¹
CCCCCCCCCCCCCCCC(=O)N[C@@H](CCC(=O)NCCOCCOCCC(=O)NCCOCCOCCC(=O)NCCCC[C@H](NC(=O)[C@H](CC(=O)O)NC(=O)[C@H](CC(C)C)NC(=O)[C@H](Cc1ccc(O)cc1)NC(=O)[C@H](CCCCN)NC(=O)[C@H](CO)NC(=O)[C@H](Cc1ccc(O)cc1)NC(=O)[C@H](CC(=O)O)NC(=O)[C@H](CO)NC(=O)[C@@H](NC(=O)[C@H](Cc1ccccc1)NC(=O)[C@@H](NC(=O)CNC(=O)[C@H](CCC(N)=O)NC(=O)[C@@H](CO)NC(=O)[C@@H](N)Cc1c[nH]cn1)[C@@H](C)O)[C@@H](C)O)C(=O)N[C@@H](CCCNC(=N)N)C(=O)N[C@@H](CCCNC(=N)N)C(=O)N[C@@H](C)C(=O)N[C@@H](CCC(N)=O)C(=O)N[C@@H](CC(=O)O)C(=O)N[C@@H](Cc1ccccc1)C(=O)N[C@H](C(=O)N[C@@H](CCC(N)=O)C(=O)N[C@@H](Cc1c[nH]c2ccccc12)C(=O)N[C@@H](CC(C)C)C(=O)N[C@@H](CC(C)C)C(=O)N[C@@H](CC(N)=O)C(=O)N[C@H](C(=O)NCC(=O)NCC(=O)N1CCC[C@H]1C(=O)N[C@@H](CO)C(=O)N[C@@H](CO)C(=O)NCC(=O)N[C@@H](C)C(=O)N1CCC[C@H]1C(=O)N1CCC[C@H]1C(=O)N1CCC[C@H]1C(=O)N[C@@H](CO)C(N)=O)[C@@H](C)O)C(C)C)C(=O)O	–	–	rhesus monkey, both sexes	subcutaneous, 20 µg/kg, multiple doses, day 1	–	Tmax	2 h
O=C(O)CC[C@H](NC(=O)c1ccccc1[Se][Se]c1ccccc1C(=O)N[C@@H](CCC(=O)O)C(=O)O)C(=O)O	rep main protease	enzyme activity, inhibitor	–	40 µM, mean of repeats	–	inhibition	23.2%
CCn1ccc(-c2cc(C(C)NC(=O)c3cc(N4CC5CC4CN5C)ccc3C)c3ccccc3n2)n1 (stereo not drawn)	rep papain-like protease	reporter gene, cell-based	–	–	–	GFP/mCherry signal ratio	42 and 66.8 and 20.5 and 5.86 and 22 and 92.9
COc1cc(C(=O)N(CCC(=O)N2CCNCC2)Cc2cccc(Cl)c2)cc(OC)c1OC	Replicase polyprotein 1ab, nsp3 macrodomain (rep, Severe acute respiratory syndrome coronavirus 2, UniProt P0DTD1)	enzyme activity, inhibitor, ADPr-Glo	–	concentration not given, SARS-CoV-2	–	ADP-ribosylhydrolase inhibition	inhibited
CNC(=O)C[C@H](Cc1ccc(F)cc1)NC(=O)[C@@H](Cc1ccc(Cl)cc1Cl)NC(=O)[C@H](N)Cc1ccccc1[N+](=O)[O-]	rep main protease	–	–	0.5229 µM	–	remaining activity	44%
Cc1ccc(OCCN(C)C)cc1C(=O)N[C@H](C)c1cc(-c2cnn(C3CNC3)c2)nc2ccccc12	rep papain-like protease	reporter gene, cell-based	–	–	–	GFP/mCherry signal ratio	104 and 102 and 88.7 and 113 and 93.4 and 110
O=C(CCc1ccccc1)NOC(=O)OCc1ccccc1	rep main protease	enzyme inactivation, inhibitor	–	1 to 30 µM	–	kinact/KI	6400 M⁻¹ s⁻¹
CCOc1cccc(NC(=O)CSc2cn(C(=O)OC(C)(C)C)c3ccccc23)c1	rep nsp12 RdRp	plus- and minus-strand replicon RNA, qRT-PCR	HEK-293T	10 µM, 24 h	relative to: control	reduction of Gluc RNA	~80%

A few entries again:
SMILES	target or system	test	system	setting	how to read	measurement	value
CCCCCCCCCCCCCCCC(=O)N[C@@H](CCC(=O)NCCOCCOCCC(=O)NCCOCCOCCC(=O)NCCCC[C@H](NC(=O)[C@H](CC(=O)O)NC(=O)[C@H](CC(C)C)NC(=O)[C@H](Cc1ccc(O)cc1)NC(=O)[C@H](CCCCN)NC(=O)[C@H](CO)NC(=O)[C@H](Cc1ccc(O)cc1)NC(=O)[C@H](CC(=O)O)NC(=O)[C@H](CO)NC(=O)[C@@H](NC(=O)[C@H](Cc1ccccc1)NC(=O)[C@@H](NC(=O)CNC(=O)[C@H](CCC(N)=O)NC(=O)[C@@H](CO)NC(=O)[C@@H](N)Cc1c[nH]cn1)[C@@H](C)O)[C@@H](C)O)C(=O)N[C@@H](CCCNC(=N)N)C(=O)N[C@@H](CCCNC(=N)N)C(=O)N[C@@H](C)C(=O)N[C@@H](CCC(N)=O)C(=O)N[C@@H](CC(=O)O)C(=O)N[C@@H](Cc1ccccc1)C(=O)N[C@H](C(=O)N[C@@H](CCC(N)=O)C(=O)N[C@@H](Cc1c[nH]c2ccccc12)C(=O)N[C@@H](CC(C)C)C(=O)N[C@@H](CC(C)C)C(=O)N[C@@H](CC(N)=O)C(=O)N[C@H](C(=O)NCC(=O)NCC(=O)N1CCC[C@H]1C(=O)N[C@@H](CO)C(=O)N[C@@H](CO)C(=O)NCC(=O)N[C@@H](C)C(=O)N1CCC[C@H]1C(=O)N1CCC[C@H]1C(=O)N1CCC[C@H]1C(=O)N[C@@H](CO)C(N)=O)[C@@H](C)O)C(C)C)C(=O)O	–	–	rhesus monkey, both sexes	subcutaneous, 20 µg/kg, multiple doses, day 1	–	Tmax	2 h
NS(=O)(=O)c1cccc2c1C(=O)c1cccc(O)c1C2=O	rep main protease	3CL protease activity	–	–	–	maximum inhibition	83%
